Values quoted from earlier work that unrelated publications cite.
Each line is one published result; not all experiments were run side by side. ± marks the error that the study gave.

| Structure (SMILES) | tested on | test | test system | setting | quantity | value |
| --- | --- | --- | --- | --- | --- | --- |
| Cc1c(C#N)cccc1[C@@H](C)Nc1nnc(C)c2cnc(N3CCOCC3)cc12 | NCI-H1975 | ERK phosphorylation, In-Cell Western, measured: phospho-ERK | – | – | IC50 | 0.0398 ± 0.015 µM |
| COc1ccccc1Oc1cccc(CN2CCC3(CC2)C(=O)NCN3CCc2ccccc2)c1 | human CCR8 Q91W mutant (TM2) | IP accumulation, agonist | – | – | EC50 | 0.108 µM |
| Nc1cc(C(F)(F)F)c(-c2nc(N3CCOCC3)nc(N3CCOCC3)n2)cn1 | DLD-1 | – | – | – | GI50 | 1.33 µM |
| FC(F)(F)c1ccc(Nc2nc(N3CCOCC3)nc3c2CCN(c2ncccc2C(F)(F)F)CC3)cc1 | TRPV1 | calcium flux, antagonist | HEK293 | together with: capsaicin | IC50 | 0.006 µM |
| CNC(C)C1CCC(N)C(OC2C(N)CC(N)C(OC3OCC(C)(O)C(NC)C3O)C2O)O1 (stereo not drawn) | Acinetobacter baumannii | – | clinical isolate RKI-No_14/16 | – | MIC | > 8 µg/mL |
| C[C@H]1COCCN1c1nc(-c2cnc(N)cc2C(F)F)nc(N2CCOCC2)n1 | U-2 OS | – | – | – | GI50 | 0.311 µM |
| FC(F)(F)c1ccc(Nc2cnnc3cc(-c4ncccc4C(F)(F)F)ccc23)cc1 | TRPV1 | calcium flux, antagonist | HEK293 | together with: capsaicin | IC50 | 0.029 µM |
| COc1ccccc1Oc1cccc(CN2CCC(NC(=O)C3CC(=O)Nc4ccccc43)CC2)c1 (stereo not drawn) | human CCR8 L258A mutant (TM6) | IP accumulation, agonist | – | – | EC50 | 0.039 µM |
| FC(F)(F)c1ccc(Nc2ccnc3nc(-c4ncccc4C(F)(F)F)ccc23)cc1 | TRPV1 | calcium flux, antagonist | HEK293 | together with: capsaicin | IC50 | 0.0061 µM |
| COc1ccccc1Oc1cccc(CN2CCC(NC(=O)C(CCN3CCCC3)c3ccccc3)CC2)c1 (stereo not drawn) | human CCR8 Q91W mutant (TM2) | IP accumulation, agonist | – | – | EC50 | 0.161 µM |
| O=C(NCc1ccc(OC(F)(F)F)cc1)Nc1cccc2cnccc12 | TRPV1 | calcium flux, antagonist | HEK293 | together with: capsaicin | IC50 | 0.003 µM |
| CC1(C)S[C@@H]2[C@H](NC(=O)[C@H](N)c3ccccc3)C(=O)N2[C@H]1C(=O)O | Enterobacter cloacae | – | clinical isolate RKI-No_136/15 | – | MIC | > 16 µg/mL |

Repeated from above:
| Structure (SMILES) | tested on | test | test system | setting | quantity | value |
| --- | --- | --- | --- | --- | --- | --- |
| O=C(NCc1ccc(OC(F)(F)F)cc1)Nc1cccc2cnccc12 | TRPV1 | calcium flux, antagonist | HEK293 | together with: capsaicin | IC50 | 0.003 µM |
